{"data": "Measurements pooled from the literature", "note": "Numbered parts are unrelated; each lists some results of a single study. Values joined by “and” are separate records of one study, mostly repeats; a detail may differ.", "chain of UniProt Q13188 (whole entry, looked up)": "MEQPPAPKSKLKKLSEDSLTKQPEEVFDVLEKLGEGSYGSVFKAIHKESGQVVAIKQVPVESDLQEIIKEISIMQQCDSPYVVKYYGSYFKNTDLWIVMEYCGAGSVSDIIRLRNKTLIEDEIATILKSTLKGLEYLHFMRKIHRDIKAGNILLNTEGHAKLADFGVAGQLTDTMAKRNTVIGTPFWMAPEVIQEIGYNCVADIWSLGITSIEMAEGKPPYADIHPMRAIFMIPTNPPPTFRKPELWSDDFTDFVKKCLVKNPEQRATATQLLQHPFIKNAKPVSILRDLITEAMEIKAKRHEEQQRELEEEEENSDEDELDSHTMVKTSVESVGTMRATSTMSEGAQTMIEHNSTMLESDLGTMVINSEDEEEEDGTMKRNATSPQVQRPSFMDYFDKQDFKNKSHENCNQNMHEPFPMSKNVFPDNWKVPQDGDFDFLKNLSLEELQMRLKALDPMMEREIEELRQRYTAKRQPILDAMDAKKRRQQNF", "chain of UniProt Q6P2M8 (whole entry, looked up)": "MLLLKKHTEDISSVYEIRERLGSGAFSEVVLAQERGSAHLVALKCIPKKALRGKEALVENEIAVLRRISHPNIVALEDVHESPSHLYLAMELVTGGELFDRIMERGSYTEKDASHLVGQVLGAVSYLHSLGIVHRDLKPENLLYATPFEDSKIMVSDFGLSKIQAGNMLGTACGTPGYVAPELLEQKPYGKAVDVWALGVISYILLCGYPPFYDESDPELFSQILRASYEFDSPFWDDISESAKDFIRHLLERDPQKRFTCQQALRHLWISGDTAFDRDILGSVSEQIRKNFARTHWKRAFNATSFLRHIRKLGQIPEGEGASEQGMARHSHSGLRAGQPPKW", "chain of UniProt Q9NRM7 (whole entry, looked up)": "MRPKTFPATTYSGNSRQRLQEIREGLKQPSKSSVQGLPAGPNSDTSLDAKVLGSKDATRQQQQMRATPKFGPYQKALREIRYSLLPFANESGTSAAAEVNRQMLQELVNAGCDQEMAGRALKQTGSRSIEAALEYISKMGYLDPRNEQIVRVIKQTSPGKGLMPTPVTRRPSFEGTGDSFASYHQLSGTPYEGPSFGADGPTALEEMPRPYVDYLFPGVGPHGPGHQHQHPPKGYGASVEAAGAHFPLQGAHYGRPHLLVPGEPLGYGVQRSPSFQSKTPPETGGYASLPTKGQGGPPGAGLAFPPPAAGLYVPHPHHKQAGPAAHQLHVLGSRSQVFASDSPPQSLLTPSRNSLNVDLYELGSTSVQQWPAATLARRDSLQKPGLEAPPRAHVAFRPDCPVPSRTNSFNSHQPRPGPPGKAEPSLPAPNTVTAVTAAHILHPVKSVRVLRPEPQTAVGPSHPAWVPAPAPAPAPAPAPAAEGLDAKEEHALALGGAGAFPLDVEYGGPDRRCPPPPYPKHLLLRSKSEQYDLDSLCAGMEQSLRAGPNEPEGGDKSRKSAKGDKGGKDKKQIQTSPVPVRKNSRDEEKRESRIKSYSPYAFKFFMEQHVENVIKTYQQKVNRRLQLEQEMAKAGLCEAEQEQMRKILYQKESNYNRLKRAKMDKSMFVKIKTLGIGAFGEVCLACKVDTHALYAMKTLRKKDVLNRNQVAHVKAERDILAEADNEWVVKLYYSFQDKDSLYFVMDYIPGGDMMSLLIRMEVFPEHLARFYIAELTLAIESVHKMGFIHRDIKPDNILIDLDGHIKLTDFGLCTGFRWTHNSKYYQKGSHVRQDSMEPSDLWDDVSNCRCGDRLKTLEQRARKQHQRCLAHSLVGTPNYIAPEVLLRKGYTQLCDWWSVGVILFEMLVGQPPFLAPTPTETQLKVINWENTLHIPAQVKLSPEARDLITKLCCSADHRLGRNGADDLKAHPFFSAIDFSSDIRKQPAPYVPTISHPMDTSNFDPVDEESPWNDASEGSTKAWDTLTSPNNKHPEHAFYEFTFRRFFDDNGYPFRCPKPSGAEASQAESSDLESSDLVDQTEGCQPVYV", "chain of UniProt Q16832 (whole entry, looked up)": "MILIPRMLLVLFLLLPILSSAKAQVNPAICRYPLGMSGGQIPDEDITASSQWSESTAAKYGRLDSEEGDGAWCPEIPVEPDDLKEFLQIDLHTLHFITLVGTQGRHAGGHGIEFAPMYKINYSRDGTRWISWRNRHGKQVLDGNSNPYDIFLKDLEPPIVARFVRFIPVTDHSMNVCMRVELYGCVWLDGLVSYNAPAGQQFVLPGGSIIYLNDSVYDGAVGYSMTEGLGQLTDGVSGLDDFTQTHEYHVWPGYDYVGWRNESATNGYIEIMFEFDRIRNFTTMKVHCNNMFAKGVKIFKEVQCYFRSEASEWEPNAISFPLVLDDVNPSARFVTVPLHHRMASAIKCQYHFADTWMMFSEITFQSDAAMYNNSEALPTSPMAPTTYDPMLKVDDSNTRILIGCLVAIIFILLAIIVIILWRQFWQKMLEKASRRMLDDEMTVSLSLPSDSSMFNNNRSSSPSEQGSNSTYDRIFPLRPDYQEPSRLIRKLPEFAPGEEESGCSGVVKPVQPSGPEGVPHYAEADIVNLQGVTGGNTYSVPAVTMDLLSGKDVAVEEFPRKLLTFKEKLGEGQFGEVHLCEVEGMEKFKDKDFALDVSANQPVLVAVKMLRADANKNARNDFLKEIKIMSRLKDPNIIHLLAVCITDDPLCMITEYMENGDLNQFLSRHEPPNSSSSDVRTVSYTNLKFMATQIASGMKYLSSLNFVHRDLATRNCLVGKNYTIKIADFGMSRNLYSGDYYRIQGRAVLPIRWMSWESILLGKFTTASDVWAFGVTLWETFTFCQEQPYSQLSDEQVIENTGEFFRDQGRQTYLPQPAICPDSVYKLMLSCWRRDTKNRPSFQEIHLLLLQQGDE", "chain of UniProt O76039 (whole entry, looked up)": "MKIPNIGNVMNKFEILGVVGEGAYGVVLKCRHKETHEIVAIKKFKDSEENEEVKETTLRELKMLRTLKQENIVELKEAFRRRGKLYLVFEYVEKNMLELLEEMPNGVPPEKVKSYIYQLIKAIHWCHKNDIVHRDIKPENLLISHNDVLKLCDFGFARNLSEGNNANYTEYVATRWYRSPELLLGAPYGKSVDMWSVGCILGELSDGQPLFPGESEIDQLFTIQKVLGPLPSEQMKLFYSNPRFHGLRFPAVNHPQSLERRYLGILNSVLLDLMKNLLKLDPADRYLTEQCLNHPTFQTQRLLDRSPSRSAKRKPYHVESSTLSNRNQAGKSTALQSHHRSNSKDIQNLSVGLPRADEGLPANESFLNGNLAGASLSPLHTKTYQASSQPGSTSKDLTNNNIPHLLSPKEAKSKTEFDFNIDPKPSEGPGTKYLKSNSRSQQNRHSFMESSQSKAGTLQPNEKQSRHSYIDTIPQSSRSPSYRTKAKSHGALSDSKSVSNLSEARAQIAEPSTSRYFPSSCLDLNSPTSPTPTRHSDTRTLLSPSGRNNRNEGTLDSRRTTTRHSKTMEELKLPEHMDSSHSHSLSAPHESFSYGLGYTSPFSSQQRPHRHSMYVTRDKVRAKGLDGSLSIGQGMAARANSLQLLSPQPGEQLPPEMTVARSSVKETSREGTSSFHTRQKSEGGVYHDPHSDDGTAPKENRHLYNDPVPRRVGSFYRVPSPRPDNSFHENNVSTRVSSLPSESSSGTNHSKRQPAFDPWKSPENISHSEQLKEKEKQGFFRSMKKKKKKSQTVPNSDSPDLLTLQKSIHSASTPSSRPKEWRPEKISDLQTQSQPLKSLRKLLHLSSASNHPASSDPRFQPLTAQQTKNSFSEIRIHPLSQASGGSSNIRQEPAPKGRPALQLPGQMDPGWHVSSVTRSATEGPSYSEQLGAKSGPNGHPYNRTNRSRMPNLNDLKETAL", "chain of UniProt P49760 (whole entry, looked up)": "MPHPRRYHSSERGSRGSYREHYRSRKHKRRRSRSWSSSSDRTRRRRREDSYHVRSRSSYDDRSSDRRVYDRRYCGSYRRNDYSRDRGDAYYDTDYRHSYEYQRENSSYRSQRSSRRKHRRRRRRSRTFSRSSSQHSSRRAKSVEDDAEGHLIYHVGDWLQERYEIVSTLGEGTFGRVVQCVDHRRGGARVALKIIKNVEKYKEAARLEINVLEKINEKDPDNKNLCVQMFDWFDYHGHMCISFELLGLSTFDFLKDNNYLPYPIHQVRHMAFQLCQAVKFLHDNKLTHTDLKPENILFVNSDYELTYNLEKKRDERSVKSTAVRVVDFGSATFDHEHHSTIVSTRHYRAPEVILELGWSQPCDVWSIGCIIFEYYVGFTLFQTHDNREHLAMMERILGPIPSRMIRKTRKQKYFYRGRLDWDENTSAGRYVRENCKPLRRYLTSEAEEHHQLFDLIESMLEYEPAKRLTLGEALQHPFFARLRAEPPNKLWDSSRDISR"}
{"data": "Series 1", "Compound": "CS(=O)(=O)N1CCCC(NC(=O)[C@H](CCC2CCCCC2)NC(=O)c2ccc(CNc3ncnc4c3nnn4-c3ccccc3)cc2)C1 (stereo partly drawn)", "observed": "cell-free assay", "method": "competition with immobilised ligand", "tested at": "0.1 µM"}
{"target": "Serine/threonine-protein kinase B-raf (BRAF, Homo sapiens, UniProt P15056, V600E)", "remaining binding [%]": 100}
{"target": "Rho-associated protein kinase 2 (ROCK2, Homo sapiens, UniProt O75116)", "remaining binding [%]": 100}
{"target": "Dual specificity protein kinase CLK2 (CLK2, Homo sapiens, UniProt P49760)", "remaining binding [%]": 100}
{"target": "Serine/threonine-protein kinase 24 (STK24, Homo sapiens, UniProt Q9Y6E0)", "remaining binding [%]": 100}
{"target": "Calcium/calmodulin-dependent protein kinase type 1B (PNCK, Homo sapiens, UniProt Q6P2M8)", "remaining binding [%]": 100}
{"target": "Dual specificity tyrosine-phosphorylation-regulated kinase 1B (DYRK1B, Homo sapiens, UniProt Q9Y463)", "remaining binding [%]": 100}
{"target": "Discoidin domain-containing receptor 2 (DDR2, Homo sapiens, UniProt Q16832)", "remaining binding [%]": 100}
{"data": "Series 2", "Structure (SMILES)": "C=CC(=O)N1CCC[C@@H](n2nc(-c3ccc(Oc4ccccc4)cc3)c3c(N)ncnc32)C1", "mode": "inhibitor", "tested at": "1 µM"}
{"target": "Ribosomal protein S6 kinase alpha-6, C-terminal kinase domain (RPS6KA6, Homo sapiens, UniProt Q9UK32)", "inhibition": "22%"}
{"target": "Serine/threonine-protein kinase LATS2 (LATS2, Homo sapiens, UniProt Q9NRM7)", "inhibition": "21%"}
{"target": "Phosphatidylinositol 3-kinase catalytic subunit type 3 (PIK3C3, Homo sapiens, UniProt Q8NEB9)", "observed": "enzyme activity", "inhibition": "5%"}
{"target": "Cyclin-dependent kinase-like 5 (CDKL5, Homo sapiens, UniProt O76039)", "observed": "enzyme activity", "inhibition": "9%"}
{"target": "Serine/threonine-protein kinase 3 (STK3, Homo sapiens, UniProt Q13188)", "observed": "enzyme activity", "inhibition": "5%"}
{"target": "Eukaryotic translation initiation factor 2-alpha kinase 1 (EIF2AK1, Homo sapiens, UniProt Q9BQI3)", "observed": "enzyme activity", "inhibition": "44%"}
{"target": "Serine/threonine-protein kinase RIO1 (RIOK1, Homo sapiens, UniProt Q9BRS2)", "observed": "enzyme activity", "inhibition": "14%"}
{"target": "Serine/threonine-protein kinase PLK1 (PLK1, Homo sapiens, UniProt P53350)", "observed": "enzyme activity", "inhibition": "0%"}
{"target": "Tyrosine-protein kinase TXK (TXK, Homo sapiens, UniProt P42681)", "observed": "enzyme activity", "inhibition": "95%"}
{"target": "Serine/threonine-protein kinase WNK2 (WNK2, Homo sapiens, UniProt Q9Y3S1)", "observed": "enzyme activity", "inhibition": "20%"}
{"data": "Series 3", "SMILES": "c1ccc(Oc2ccc(Nc3c4c(nc5ccccc35)CCC4)cc2)cc1"}
{"cell line": "PMA-differentiated THP-1 macrophages", "tested at": "0.08 µM", "time": "64 h", "cytotoxicity": "13% and 6%"}
{"cell line": "PMA-differentiated THP-1 macrophages", "tested at": "0.04 µM", "time": "64 h", "cytotoxicity": "6% and 9%"}
{"cell line": "HEK293", "method": "resazurin", "tested at": "0.0166 µM", "setting": "10% serum", "cytotoxicity": "5%"}
{"cell line": "J774.1", "method": "resazurin", "tested at": "16.66 µM", "time": "64 h", "cytotoxicity": "31% and 20%"}
{"cell line": "HEK293", "method": "resazurin", "tested at": "0.66 µM", "setting": "10% serum", "cytotoxicity": "21% and 12%"}
{"cell line": "J774.1", "method": "resazurin", "tested at": "6.66 µM", "time": "64 h", "cytotoxicity": "-5% and -4%"}
{"cell line": "J774.1", "method": "resazurin", "tested at": "3.32 µM", "cytotoxicity": "-4% and -5%"}
{"cell line": "HepG2", "method": "resazurin", "tested at": "0.00332 µM", "time": "48 h", "cytotoxicity": "1% and -2%"}
{"cell line": "RAW264.7", "method": "resazurin", "tested at": "6.66 µM", "time": "64 h", "cytotoxicity": "-6%"}
{"data": "Series 4", "target": "Serine/threonine-protein kinase BRSK1 (BRSK1, Homo sapiens, UniProt Q8TDC3)", "observed": "enzyme activity", "mode": "inhibitor", "tested at": "0.5 µM", "baseline": "control", "chain of UniProt Q8TDC3 (whole entry, looked up)": "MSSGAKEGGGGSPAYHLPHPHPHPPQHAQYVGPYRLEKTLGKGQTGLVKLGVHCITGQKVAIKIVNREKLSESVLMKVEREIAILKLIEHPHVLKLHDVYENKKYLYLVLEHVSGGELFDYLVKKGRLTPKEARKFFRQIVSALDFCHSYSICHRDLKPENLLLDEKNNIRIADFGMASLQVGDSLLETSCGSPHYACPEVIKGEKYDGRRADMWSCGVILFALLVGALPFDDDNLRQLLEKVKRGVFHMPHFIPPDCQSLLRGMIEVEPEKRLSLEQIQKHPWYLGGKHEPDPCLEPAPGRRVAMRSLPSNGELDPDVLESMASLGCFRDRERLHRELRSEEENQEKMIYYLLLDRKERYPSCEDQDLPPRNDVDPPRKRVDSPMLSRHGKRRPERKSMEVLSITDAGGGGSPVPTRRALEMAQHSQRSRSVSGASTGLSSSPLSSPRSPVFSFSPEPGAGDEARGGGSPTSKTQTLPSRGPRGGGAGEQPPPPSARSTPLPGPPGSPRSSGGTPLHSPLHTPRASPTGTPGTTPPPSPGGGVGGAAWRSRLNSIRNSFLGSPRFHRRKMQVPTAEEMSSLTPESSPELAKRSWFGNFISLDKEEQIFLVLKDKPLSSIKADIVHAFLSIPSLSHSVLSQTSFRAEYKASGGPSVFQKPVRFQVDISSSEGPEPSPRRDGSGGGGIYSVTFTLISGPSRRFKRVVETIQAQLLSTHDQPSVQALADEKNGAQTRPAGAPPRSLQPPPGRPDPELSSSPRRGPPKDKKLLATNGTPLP"}
{"SMILES": "C#Cc1cccc(Nc2ncnc3cc(OCCOC)c(OCCOC)cc23)c1", "remaining activity [%]": 95.3}
{"SMILES": "COc1ccc(OC)c2c(=S)c3ccccc3[nH]c12", "remaining activity [%]": 93.7}
{"SMILES": "OCC(O)CCON=C1C(c2c(O)[nH]c3ccccc23)=Nc2ccccc21 (stereo not drawn)", "remaining activity [%]": 39.5}
{"SMILES": "CO[C@H]1C[C@@H]2CC[C@@H](C)[C@@](O)(O2)C(=O)C(=O)N2CCCC[C@H]2C(=O)O[C@H]([C@H](C)C[C@@H]2CC[C@@H](O)[C@H](OC)C2)CC(=O)[C@H](C)/C=C(\\C)[C@@H](O)[C@@H](OC)C(=O)[C@H](C)C[C@H](C)/C=C/C=C/C=C/1C", "remaining activity [%]": 99.9}
{"SMILES": "O=C(O)c1ccc2c3c1cccc3c(=O)n1c3ccccc3nc21", "remaining activity [%]": 89}
{"SMILES": "Nc1ncnc2n[nH]c(Nc3ccc(F)cc3)c12", "remaining activity [%]": 63}
{"SMILES": "COc1cc2nccc(Oc3ccc(NC(=S)NC(=O)c4ccccc4C)cc3)c2cc1OC", "remaining activity [%]": 87}
{"SMILES": "CCOC(=O)c1c(C)[nH]c(/C=C2\\C(=O)Nc3ccccc32)c1C", "remaining activity [%]": 92.6}
{"SMILES": "O=C1NC(=O)C(c2cn(CCCO)c3ncccc23)=C1c1cnccn1", "remaining activity [%]": 89.2}
{"SMILES": "O=S(=O)(c1cccc2cnccc12)N1CCCNCC1", "remaining activity [%]": 97.5}
{"SMILES": "Cn1c2ccccc2c2c3c(c4c5ccccc5n(CCC#N)c4c21)CNC3=O", "remaining activity [%]": 20.2}
{"SMILES": "Nc1[nH]nc2nc3ccccc3nc12", "remaining activity [%]": 91.5}
{"SMILES": "Cc1ccc(NC(=O)c2ccc(CN3CCN(C)CC3)cc2)cc1Nc1nc(-c2cccnc2)cs1", "remaining activity [%]": 102}
{"SMILES": "COc1ccc(C(=O)Nc2sc3c(c2C(N)=O)CCCC3)cc1OC", "remaining activity [%]": 105}
{"SMILES": "Oc1ccc(-c2nc(-c3ccncc3)c(-c3ccc(F)cc3)[nH]2)cc1", "remaining activity [%]": 101}
{"SMILES": "COc1ccc(CNC(=O)Nc2ncc([N+](=O)[O-])s2)cc1", "remaining activity [%]": 102}
{"note": "Some of these lines once more (series 4):"}
{"SMILES": "OCC(O)CCON=C1C(c2c(O)[nH]c3ccccc23)=Nc2ccccc21 (stereo not drawn)", "remaining activity [%]": 39.5}
{"SMILES": "COc1cc2nccc(Oc3ccc(NC(=S)NC(=O)c4ccccc4C)cc3)c2cc1OC", "remaining activity [%]": 87}
{"SMILES": "COc1ccc(CNC(=O)Nc2ncc([N+](=O)[O-])s2)cc1", "remaining activity [%]": 102}
